Published values collected from several papers.
Target: Acetylcholinesterase (ACHE, Homo sapiens, UniProt P22303)
UniProt P22303, sequence (whole entry, looked up): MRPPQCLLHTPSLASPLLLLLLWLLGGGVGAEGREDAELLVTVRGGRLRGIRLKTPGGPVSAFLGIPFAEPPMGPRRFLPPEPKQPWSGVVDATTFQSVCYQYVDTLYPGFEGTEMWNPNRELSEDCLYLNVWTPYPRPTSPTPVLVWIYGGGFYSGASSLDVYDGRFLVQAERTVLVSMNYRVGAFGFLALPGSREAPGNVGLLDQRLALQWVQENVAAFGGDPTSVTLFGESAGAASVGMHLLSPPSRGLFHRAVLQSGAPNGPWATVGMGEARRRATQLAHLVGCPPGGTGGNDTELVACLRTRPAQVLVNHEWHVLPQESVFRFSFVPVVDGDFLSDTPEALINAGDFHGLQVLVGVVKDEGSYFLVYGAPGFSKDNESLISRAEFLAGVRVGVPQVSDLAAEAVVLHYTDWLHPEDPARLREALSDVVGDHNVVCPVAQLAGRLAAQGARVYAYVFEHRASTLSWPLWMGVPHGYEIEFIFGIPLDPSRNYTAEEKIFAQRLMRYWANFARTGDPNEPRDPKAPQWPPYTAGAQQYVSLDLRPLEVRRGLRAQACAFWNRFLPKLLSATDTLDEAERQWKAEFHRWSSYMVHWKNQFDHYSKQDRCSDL
Effect on: enzyme activity
Action: inhibitor

SMILES | method | measurement | result
COc1cc2c(cc1OC)C(=O)/C(=C\c1ccc(N3CCCC3)cc1)C2 | – | Ki | 78 µM
Cc1cc(O)c2c(c1)C(=O)c1c(O)ccc(O)c1C2=O | – | Ki | 10.3 µM
COc1cc2c(cc1OC)C(=O)/C(=C\c1ccc(-n3cccn3)cc1)C2 | – | Ki | 13 µM
O=c1ccoc2ccc(OCCCCCN3CCCCC3)cc12 | Ellman | Ki | 1.26 µM
O=C1c2c(O)cc(O)cc2OC2(c3ccc(O)c(O)c3)Oc3cc4oc(-c5ccc(O)cc5)c(O)c(=O)c4c(O)c3C12O (racemic) | Ellman | IC50 | 2.72 µM
COc1cc2c(cc1OC)C(=O)/C(=C\c1ccc(N3CCOCC3)cc1)C2 | – | Ki | 47 µM
O=C1c2c(O)cc(O)cc2O[C@]2(c3ccc(O)c(O)c3)Oc3cc(O)c4c(=O)c(O)c(-c5ccc(O)c(O)c5)oc4c3[C@]12O | Ellman | IC50 | > 50 µM
O=c1ccoc2ccc(OCCCCCN3CCCCCC3)cc12 | Ellman | Ki | 4.7 µM
COc1cc(/C=C/C(=O)CC(=O)/C=C/c2ccc(OC(=O)CCc3c[nH]c4ccccc34)c(OC)c2)ccc1OC(=O)CCc1c[nH]c2ccccc12 | – | Ki | 47.1 µM
O=C1c2c(O)cc(O)cc2OC2(c3ccc(O)c(O)c3)Oc3cc(O)c4c(=O)c(O)c(-c5ccc(O)cc5)oc4c3C12O (racemic) | Ellman | IC50 | 6.39 µM
CCN(CC)CCCCCOc1ccc2occc(=O)c2c1 | Ellman | Ki | 1.61 µM

A few entries again:
SMILES | method | measurement | result
O=C1c2c(O)cc(O)cc2OC2(c3ccc(O)c(O)c3)Oc3cc(O)c4c(=O)c(O)c(-c5ccc(O)cc5)oc4c3C12O (racemic) | Ellman | IC50 | 6.39 µM
